Measurements from different studies.
Lines come from different studies, so protocols differ. Numbers after ± are the reported error.

For O=Cc1c(O)ccc2ccccc12, “log2 fold change” read 3.06 (HUVEC; RNA sequencing, refers to: THBD; 75 µM, 24 h; baseline: DMSO).
With COC(=O)c1cnc(-c2cnccn2)cc1C(=O)OC.COC(=O)c1cnc(-c2cnccn2)cc1C(=O)OC.[Cl-].[Cl-].[Cl-].[Cl-].[Cu+2].[Cu+2] the binding constant was 367 M⁻¹ (calf thymus DNA; ethidium bromide displacement).
For COc1cc(CNC(=O)C[C@H](C)CCC=C(C)C)ccc1OCc1cn(-c2ccc(Br)cc2)nn1, the growth percent was 94.6% (KM12; SRB; 10 µM, 48 h).
Under FSH level, Cc1cc(O)c(C=O)c2c1C(=O)Oc1c(CO)c(O)c3c(c1O2)C(O)OC3=O (centres unmarked) is recorded as “increased” (streptozotocin-diabetic male albino rats, serum; dose not given, 9 weeks; baseline: diabetic control).
The growth of CC(=O)OC[C@H]1O[C@@H](Sc2sc(C(=O)c3ccc(C)cc3)c(N)c2-c2nc3ccccc3s2)[C@H](OC(C)=O)[C@@H](OC(C)=O)[C@@H]1OC(C)=O is reported as 81.3% (NCI-H322M; SRB; 10 µM, 48 h; baseline: untreated).
COc1cc(CNC(=O)C[C@H](C)CCC=C(C)C)ccc1OCc1cn(-c2ccc(Cl)c(Cl)c2)nn1 has a growth percent of 51.6% (HOP-92; SRB; 10 µM, 48 h).
CC[C@H]1[C@@H](O)[C@@H]2[C@H](CC[C@]3(C)[C@@H]([C@H](C)CCOS(=O)(=O)[O-])CC[C@@H]23)[C@@]2(C)CC[C@@H](O)C[C@@H]12.[Na+] — result for “liver total cholesterol”: 24 ± 1.1 mg/g tissue (ob/ob NASH mice, liver; oral, 3 mg/kg once daily, 8 wk).
CC(=O)OC[C@H]1O[C@@H](Sc2sc(C(=O)c3ccc(Br)cc3)c(N)c2-c2nc3ccccc3s2)[C@H](OC(C)=O)[C@@H](OC(C)=O)[C@H]1OC(C)=O gave a growth of 98.3% (HOP-92; SRB; 10 µM, 48 h; baseline: untreated).
